Measurements from different studies.
± marks the error that the study gave.
Sequence of UniProt P27487 (whole entry, looked up): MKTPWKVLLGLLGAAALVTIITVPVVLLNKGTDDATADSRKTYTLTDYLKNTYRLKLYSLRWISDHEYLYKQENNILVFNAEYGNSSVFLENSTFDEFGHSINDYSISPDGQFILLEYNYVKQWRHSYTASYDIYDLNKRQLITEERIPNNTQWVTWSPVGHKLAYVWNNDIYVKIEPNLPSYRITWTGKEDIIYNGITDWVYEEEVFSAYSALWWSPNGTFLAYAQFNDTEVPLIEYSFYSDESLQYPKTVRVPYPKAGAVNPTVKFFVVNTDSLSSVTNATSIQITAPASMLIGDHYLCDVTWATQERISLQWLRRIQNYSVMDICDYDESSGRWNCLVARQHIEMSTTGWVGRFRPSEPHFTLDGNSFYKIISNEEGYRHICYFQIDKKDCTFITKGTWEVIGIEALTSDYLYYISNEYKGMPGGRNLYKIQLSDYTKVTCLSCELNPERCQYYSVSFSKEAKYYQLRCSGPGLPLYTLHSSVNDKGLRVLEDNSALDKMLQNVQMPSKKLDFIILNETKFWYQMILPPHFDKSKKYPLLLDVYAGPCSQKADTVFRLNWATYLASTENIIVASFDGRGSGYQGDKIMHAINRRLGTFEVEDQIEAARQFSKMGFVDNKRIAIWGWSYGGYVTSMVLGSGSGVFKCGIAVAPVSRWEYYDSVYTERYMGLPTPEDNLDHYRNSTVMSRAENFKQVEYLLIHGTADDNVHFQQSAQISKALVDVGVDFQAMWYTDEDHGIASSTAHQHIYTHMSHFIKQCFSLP

tgt C145V/P147N/T146V/V217G (Escherichia coli)
Km (Nc1nc2nc[nH]c2c(=O)[nH]1; steady-state kinetics; pH 7.3, 37 °C): 35 µM

COc1cccc2c1C(=O)c1c(O)c3c(c(O)c1C2=O)C[C@@](O)(C(=O)CO)C[C@@H]3O[C@H]1C[C@H](NC(=O)[C@@H]2CCCN2C(=O)CNC(=O)[C@H](CC(C)C)NC(=O)[C@H](C)NC(=O)CP(=O)(O)O)[C@H](O)[C@H](C)O1
Cmax (mouse, E0771 tumour-bearing, kidney; intravenous, 92 µmol/kg): 530 µM

GCCTAAAAGAGGATATCCTTATAGCATAATTAACTAAACTTAATTAAATAAATAATATATCCTAAGGAGAGAAATG (dsDNA)
binding (Manganese transport regulator 1-215 Y167A/F187A (Streptococcus pyogenes, UniProt A0A0H2UTK0); EMSA; double-stranded DNA, one strand shown; together with: Mn2+ 300 µM): binds

N=C(N)NCCC[C@@H]1NC(=O)[C@H](CCCCNC(=O)CNC(=O)CNC(=O)CNC(=O)CC[C@H](NC(=O)CCOCCOCCOCCOCCNC(=O)c2ccc(NN)nc2)C(=O)NCC(=O)NCC(=O)NCC(=O)NCCCC[C@@H]2NC(=O)[C@@H](Cc3ccccc3)NC(=O)[C@H](CC(=O)O)NC(=O)CNC(=O)[C@H](CCCNC(=N)N)NC2=O)NC(=O)[C@@H](Cc2ccccc2)NC(=O)[C@H](CC(=O)O)NC(=O)CNC1=O [technetium-99m labelled]
tissue uptake (γ-counting; female athymic nude mice, U-87 MG xenograft, heart; intravenous, 1 h): 1.61 ± 0.39 %ID/g

AGGCATACAAGCACCTGCTGGAGCTTCGCCTGGAGAACGGGCCGATGGAGCACGACGCGGCGGTGGCAGCACTGAAGGAATGGTGGGCTCAGCACCCGGACAACGCATGAGAACGGGCGGCACGTTTCACGTGAAACGTGCCGCCCGCGGGTCATGTTTCACGTGAAACATGACCGTGAAGCAGAACACGGAGAGTGGTCTGTGCCTCAGGCCTCGCCGAGGCAGAGCAGGAACTCTTCACCGTCGCCGGTTTCGGCGTAGAAGCCGGTGGCTCCGTCGACCTTCCGGCACTCCGTCTCG (dsDNA)
Kd (Partitioning or sporulation protein full length assumed (Streptomyces coelicolor, UniProt Q9S6U1); EMSA; double-stranded DNA, one strand shown; Hill fit): 0.0333 µM

COc1cccc2c1C(=O)c1c(O)c3c(c(O)c1C2=O)C[C@@](O)(C(=O)CO)C[C@@H]3O[C@H]1C[C@H](NC(=O)[C@H](CC(C)C)NC(=O)[C@H](C)NC(=O)[C@H](CC(C)C)NC(=O)CCNC(=O)CCC(=O)O)[C@H](O)[C@H](C)O1
Cmax (mouse, E0771 tumour-bearing, tumor; intravenous, 92 µmol/kg): 56.5 µM

RmS-17, glycosylated (Rhipicephalus microplus) (sequence not shown)
protease inhibition (F2 thrombin (Bos taurus); chromogenic substrate hydrolysis, inhibitor; 1 µM): < 20%

CSCC[C@H](NC(=O)[C@H](CC(C)C)NC(=O)[C@H](Cc1c[nH]cn1)NC(=O)CNC(=O)[C@@H](NC(=O)[C@H](C)NC(=O)[C@H](Cc1c[nH]c2ccccc12)NC(=O)[C@H](CCC(N)=O)NC(=O)CCCCCNC(=O)[C@H](CCC(=O)NCCCC[C@@H]1NC(=O)[C@@H](Cc2ccc(O)cc2)NC(=O)[C@H](CC(=O)O)NC(=O)CNC(=O)[C@H](CCCNC(=N)N)NC1=O)NC(=O)CN1CCN(CC(=O)O)CCN(CC(=O)O)CC1)C(C)C)C(N)=O [copper-64 labelled]
tissue uptake (ICR SCID mouse, female, kidneys; intravenous, 750 kBq, 4 h): 2.18 ± 0.26 %ID/g

melittin
free energy of partitioning (CD titration; POPC 75% POPG 25% vesicles; pH 7.0, 25 °C): -7.12 kcal/mol

CC(C)C[C@H](NC(=O)[C@H](Cc1c[nH]cn1)NC(=O)[C@H](Cc1ccc(O)cc1)NC(=O)[C@H](CCCNC(=N)N)NC(=O)[C@H](Cc1ccc(O)cc1)NC(=O)[C@H](CCCCN)NC(=O)[C@@H](N)CCCCN)C(=O)N[C@@H](CCCCN)C(=O)N1CCC[C@H]1C(=O)N[C@@H](Cc1ccccc1)C(=O)NCCCC[C@H](NC(=O)[C@H](Cc1ccccc1)NC(=O)[C@@H]1CCCN1C(=O)[C@H](CCCCN)NC(=O)[C@H](CC(C)C)NC(=O)[C@H](Cc1c[nH]cn1)NC(=O)[C@H](Cc1ccc(O)cc1)NC(=O)[C@H](CCCNC(=N)N)NC(=O)[C@H](Cc1ccc(O)cc1)NC(=O)[C@H](CCCCN)NC(=O)[C@H](CCCCN)NC(=O)c1ccc(CNC(=NC(=O)c2ccccc2)Nc2ccc(Br)cc2)cc1)C(N)=O
CC50 (Swiss mouse peritoneal macrophages; cytotoxicity, MTT): 550 ± 0.011 µM

NSRQTDR
inhibition (peptide, human polyclonal IgM RF LOP; concentration not given, 5 µg/mL mAb II-481 coated, together with: RF at 50% max binding concentration): 0%

bop full-length with retinal D85E/D96Q (Halobacterium salinarum)
pKa (UV-vis, measured: Glu85; membranes; resting state, numbering of the source): 9.7

CNSRQTDREDELI
inhibition (peptide, human polyclonal IgM RF AGER; concentration not given, 5 µg/mL mAb II-481 coated, together with: RF at 50% max binding concentration): 0%

N=C(N)NCCC[C@@H]1NC(=O)[C@H](CCCCNC(=O)[C@H](CC(=O)O)NC(=O)[C@H](CC(=O)O)NC(=O)[C@H](CC(=O)O)NC(=O)CC[C@H](NC(=O)CCOCCOCCOCCOCCNC(=O)c2ccc(NN)nc2)C(=O)N[C@@H](CC(=O)O)C(=O)N[C@@H](CC(=O)O)C(=O)N[C@@H](CC(=O)O)C(=O)NCCCC[C@@H]2NC(=O)[C@@H](Cc3ccccc3)NC(=O)[C@H](CC(=O)O)NC(=O)CNC(=O)[C@H](CCCNC(=N)N)NC2=O)NC(=O)[C@@H](Cc2ccccc2)NC(=O)[C@H](CC(=O)O)NC(=O)CNC1=O [technetium-99m labelled]
tissue uptake (γ-counting; female athymic nude mice, U-87 MG xenograft, heart; intravenous, 1 h): 1.66 ± 0.05 %ID/g

CC[C@H]1CN2CCc3cc(OC)c(OC)cc3[C@@H]2C[C@@H]1C[C@@H]1c2cc(OC)c(OC)cc2CCN1C(=O)[C@@H]1CCCN1C(=O)[C@H](C)N
emetine released (Dipeptidyl peptidase 4 (DPP4, Homo sapiens, UniProt P27487); substrate, HPLC-MS; 500 µM, 24 h, pH 7.8, 37 °C, 1% DMSO, together with: DPPIV 30 nM): 0%

For quick reference, copied from above:
GCCTAAAAGAGGATATCCTTATAGCATAATTAACTAAACTTAATTAAATAAATAATATATCCTAAGGAGAGAAATG (dsDNA)
binding (Manganese transport regulator 1-215 Y167A/F187A (Streptococcus pyogenes, UniProt A0A0H2UTK0); EMSA; double-stranded DNA, one strand shown; together with: Mn2+ 300 µM): binds
